Published values of several laboratories.
Every numbered part comes from another study and shows a few of its results, in no order. Several values in a cell are separate wells, animals, samples, runs or records. Substitutions count along the parent as printed.

Series 1
Target: Ras GTPase-activating protein-binding protein 1, C-terminal RGG region (G3BP1, Homo sapiens, UniProt Q13283)
Chain of UniProt Q13283 (whole entry, looked up): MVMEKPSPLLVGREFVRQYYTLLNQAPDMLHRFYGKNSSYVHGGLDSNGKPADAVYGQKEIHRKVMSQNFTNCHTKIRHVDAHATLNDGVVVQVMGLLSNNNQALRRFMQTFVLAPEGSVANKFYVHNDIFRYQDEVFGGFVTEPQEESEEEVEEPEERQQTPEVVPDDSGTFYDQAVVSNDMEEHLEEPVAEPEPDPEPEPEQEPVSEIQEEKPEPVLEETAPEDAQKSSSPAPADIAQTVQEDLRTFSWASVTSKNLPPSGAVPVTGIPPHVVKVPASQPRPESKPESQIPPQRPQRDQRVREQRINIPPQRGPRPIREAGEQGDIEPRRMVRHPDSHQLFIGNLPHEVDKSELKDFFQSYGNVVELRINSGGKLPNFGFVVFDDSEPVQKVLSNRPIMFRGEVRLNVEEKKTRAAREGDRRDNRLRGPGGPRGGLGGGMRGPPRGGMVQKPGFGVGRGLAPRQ
Technique: RNA Bind-n-Seq
Form: RNA
Medium: in vitro
Concentration: 1 µM
Notes: whole 134-nt RNA, ends assumed
Together with: 150 mM KCl
Reference: input library
Reading: higher = stronger binding
Measurement: log2 enrichment
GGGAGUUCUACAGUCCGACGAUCUCCUGUGCUACACAUCGUAUGUACCGAAUCGGGCCCCCCGGGCCCCCCGGGCCCCCCGGAAAGUAUUAUGUUACGCCGUUCGGAUCUGCAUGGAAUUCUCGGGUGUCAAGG: -1.05
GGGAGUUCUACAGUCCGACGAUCAGUCCUGUGCUACACAUCGUAUGUACCGAAUCGGGGUUUUUGGUUUUUGGUUUUUGGGAAAGUAUUAUGUUACGCCGUUCGGAUCUGCACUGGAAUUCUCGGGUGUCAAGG: -1.83
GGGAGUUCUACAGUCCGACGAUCUGGCCCUGGUGGCAUUCGGGGAGGAAGAGGUGGCCUCAUGGAUCGUGGUGGUCCCGGUGGAAUGUUCAGAGGUGGCCGUGGUGGAGACAGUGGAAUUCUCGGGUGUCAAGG: 2.18
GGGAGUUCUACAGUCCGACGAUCCACAGACAACACGCACCCACACAGACACAGAGGGAAGGGGUUGGGAUGGGGACAGGGUGCACAGCAGGGCGGGGUAGGUCCCCAGCCCCUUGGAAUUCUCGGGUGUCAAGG: -1.06
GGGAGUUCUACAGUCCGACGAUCUCAAGGGUUAUACACGGAAAGCCGCUGCGCUGGAAGCGAUGAAGGACUACACCAAAGCCAUGGAUGUGUACCAGAAGGCGCUAGACCUGGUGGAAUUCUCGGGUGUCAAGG: -1.49
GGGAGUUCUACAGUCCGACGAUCCUGUGCUACACAUCGUAUGUACCGAAUCGGGGAAAAAAAGGGGAAAAAAAGGAAAAAAAGGAAAGUAUUAUGUUACGCCGUUCGGAUCUGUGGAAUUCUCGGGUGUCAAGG: -1.36
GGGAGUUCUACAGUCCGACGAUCUGGCCCUGGUGGCAUGCGGGGAGGAAGAGGUGGCCUCAUGGAUCGUGGUGGUCCCGGUGGAAUGUUCAGAGGUGGCCGUGGUGGAGGCAGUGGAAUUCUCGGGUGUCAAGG: 3.1
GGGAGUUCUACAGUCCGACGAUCGGGUCUGUUGCAAAUAAAUUCUAUGUUCACAAUGAUAUCUUCAGAUACCAAGAUGAGGUCUUUGGUGGGUUUGUCACUGAGCCUCAGGAGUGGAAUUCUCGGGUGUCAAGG: -1.59
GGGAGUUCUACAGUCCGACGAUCGGUGAUGGUCAACAAGCCUCAACUGCCUCUGCUACAACUGCCAAGUUCCCCGCGUCCCACCCUCCUCUAGGUGCUCCAAGGGACCACCGGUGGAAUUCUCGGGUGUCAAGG: -0.259
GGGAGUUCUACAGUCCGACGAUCCUCAAGUCCUGUGCUACACAUCGUAUGUACCGAAUCGGGAAGGAAGGGAAGGGAAAGUAUUAUGUUACGCCGUUCGGAUCUGCACUUCCAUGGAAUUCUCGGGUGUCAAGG: -0.637
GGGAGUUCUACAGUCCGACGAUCCUCAAGUCCUGUGCUACACAUCGUAUGUACCGAAUCGGUUUUUGGUGGUUUGGAAAGUAUUAUGUUACGCCGUUCGGAUCUGCACUUCCAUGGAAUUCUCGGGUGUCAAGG: -1.27
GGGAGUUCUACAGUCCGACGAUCUGGCCUUAUCACUCCUGGAGGCUUUUCAUCAGUGCCUGCUGGAAUGGAGACCCCUGAACUCAUUGAGCUGAGGAAGAAGAAGAUUGAGGAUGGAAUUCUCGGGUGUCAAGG: -2.18
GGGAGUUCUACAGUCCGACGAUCCACAGACAACACGCACCCACACAGACACAGAGGGAAGGGGUUGGGAUGGGGACAGGGUGCACAGCAGGAAAGGGUAGGACCCCAGCCCCUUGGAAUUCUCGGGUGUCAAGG: -0.238
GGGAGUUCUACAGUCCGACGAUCAAGUCCUGUGCUACACAUCGUAUGUACCGAAUCGGGUUUUUGGGUUUUUGGGUGGGAAAGUAUUAUGUUACGCCGUUCGGAUCUGCACUUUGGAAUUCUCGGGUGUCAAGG: 0.171

Series 2
Target: CCNB3, cyclin fold, Cln2 fusion (human)
Technique: yeast growth competition, sequencing
Medium: yeast
Notes: strong parent motif
Reference: not given
Reading: higher = stronger binding
Measurement: normalised enrichment score
Parent: E2F1 docking peptide (human); PPVKRRLDFETDH; partner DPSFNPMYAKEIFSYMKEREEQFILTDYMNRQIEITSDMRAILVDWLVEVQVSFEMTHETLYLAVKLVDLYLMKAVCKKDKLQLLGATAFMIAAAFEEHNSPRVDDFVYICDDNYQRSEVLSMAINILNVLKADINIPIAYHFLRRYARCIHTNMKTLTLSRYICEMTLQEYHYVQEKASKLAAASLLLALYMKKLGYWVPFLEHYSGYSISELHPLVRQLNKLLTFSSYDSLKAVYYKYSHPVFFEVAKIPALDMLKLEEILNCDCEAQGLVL
PPVPRRLDFETDH [K4P]: 0.943
PPVQRRLDFETDH [K4Q]: 0.689
PPVKRRLDFFTDH [E10F]: 1.47
PPCKRRLDFETDH [V3C]: 2.5
PPVKRRLDFEGDH [T11G]: 2.52
PPVKERLDFETDH [R5E]: -0.344
PPVKVRLDFETDH [R5V]: 0.108
PPVKRRLDIETDH [F9I]: 0.281
PPVKRRNDFETDH [L7N]: -0.077
PPVGRRLDFETDH [K4G]: 0.348
PPVKRRLDFEVDH [T11V]: 2.64
PPVKRRLDFECDH [T11C]: 2.43
PPVKRRLDFETKH [D12K]: 3.25
PPVKRRMDFETDH [L7M]: -0.0318
PPGKRRLDFETDH [V3G]: 0.0883
PPVTRRLDFETDH [K4T]: 0.359
PPVKRRLDFQTDH [E10Q]: 2.02
PPVKRRLDFGTDH [E10G]: 3.18

Series 3
Target: RING finger protein unkempt homolog, zinc fingers 1-6, GST-SBP tag (UNK, Homo sapiens, UniProt Q9C0B0, residues 30-357)
Chain of UniProt Q9C0B0 (30-357, looked up): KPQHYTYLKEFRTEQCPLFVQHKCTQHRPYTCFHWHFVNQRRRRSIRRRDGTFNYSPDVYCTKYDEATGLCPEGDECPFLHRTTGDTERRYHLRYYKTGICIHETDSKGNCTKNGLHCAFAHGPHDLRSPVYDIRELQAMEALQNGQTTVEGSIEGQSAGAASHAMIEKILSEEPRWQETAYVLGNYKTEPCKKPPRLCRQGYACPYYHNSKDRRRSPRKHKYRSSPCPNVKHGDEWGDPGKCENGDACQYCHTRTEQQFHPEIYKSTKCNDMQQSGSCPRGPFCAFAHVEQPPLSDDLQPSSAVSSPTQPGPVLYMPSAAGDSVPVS
Technique: RNA Bind-n-Seq
Form: RNA
Medium: in vitro
Concentration: not given
Notes: RNA with constant flanks, human and mouse sites, ends assumed
Reference: input RNA pool
Reading: higher = stronger binding
Measurement: bound/input enrichment
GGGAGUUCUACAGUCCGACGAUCGAGCUUAAAGAAGUGGAGCCCAAAUUAGCCGCCUGGAUCCAAAAACUUAAUAGCUUUGGCUUAGAUGCCACAGGAACUUUCUUUUCUCGUUAUGGAGCAUCUCUUAAACUGCUUGAUUUUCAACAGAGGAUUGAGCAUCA: 0.758 ratio
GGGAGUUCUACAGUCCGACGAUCAGGUUUCAGAGCGCAGCCAUCGGUGCGCUGCAGGAGGCUAGCGAAGCGUACCUGGUGGGUCUGUUCGAAGAUACCAACCUGUGUGCCAUCCACGCUAAGAGAGUCACCAUCAUGCCCAAACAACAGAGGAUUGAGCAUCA: 0.122 ratio
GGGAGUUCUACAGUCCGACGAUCAUAGAGGCAGCACCCGAGUCCCAGAUGAUGCCAGCAAGCGUCUUAACUGGGAACGUUAUCAUAGAAACAAAGUUUUUUGACGACGAUCUUCUUGUAAGCACAUCCAGAGUGAGACUUUUCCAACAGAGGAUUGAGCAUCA: 1.52 ratio
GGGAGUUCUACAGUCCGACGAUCCCUUCUAAUUUUGGAGAUUUUUCUCAGAAUAUCUCUACACCCAGUGAACAGCAGCAACCCUUAGCCCAGAAUUCUUCAGGAAAAACAGAAUAUAUGGCUUUUCCAAAACCUUUUGAAAGCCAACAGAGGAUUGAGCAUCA: 0.826 ratio
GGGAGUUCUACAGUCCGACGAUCGUAUCUUUAACUAGAAUCCUGAAAUGUUCAGAGCAGAGCUUAAUCGAAUUUUUUAAUAAGAUGAAGAAGUGGGAAGACAUGGCAAAUCUACCCCCACAUUUCAGAGAACGUACUGAGAGACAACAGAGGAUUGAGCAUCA: 0.491 ratio
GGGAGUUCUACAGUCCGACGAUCUCCGAUAUGGACUACAUUCAGACAGACGCUAUCAUCAAUUAUGGAAAUUCCGGAGGCCCGUUAGUAAACCUGGAUGGCGAGGUGAUUGGGAUUAACACCUUGAAGGUGACGGCGGGCAUCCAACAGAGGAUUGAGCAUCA: 0.317 ratio
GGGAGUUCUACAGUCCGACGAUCUCAGGGGGCACACUGAGUGGUGGUAUUCUCUCCAGCGGCAAGGGAAAGUACAGCCGGUUAGAAGUUCAAGCUGAUGUCCAAAAGGAAAUUUUCCCCAAAGACACAGCCAGUCUUGGUGCACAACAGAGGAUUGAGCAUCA: 0.441 ratio
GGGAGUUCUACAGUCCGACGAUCAAAUCACGAAACAAUGAAUCAGAAAAGCCCAGUUCUAAUUCAGAAGUGAGUUUACAAGUAGAUUUGAAAAGCAUUUUGGAGAAACAGUUUUCAAAAUCUUCCAGAGCUGCACACCAGGAUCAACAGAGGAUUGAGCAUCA: 0.238 ratio
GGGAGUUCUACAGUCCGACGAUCGAGGCCCUGAAGAUCUUCCAGAAAAUAAAGGAUGAAAAGAGCCCAGAGUGGUCCAAAUUUUUAGGAUUGAUCAAAAAAUUUGUCACUGAUUCCAAUGCAGUGGUUCAAUUGAAAGGAUUACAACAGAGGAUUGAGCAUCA: 0.354 ratio
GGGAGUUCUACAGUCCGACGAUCGGGCGCGGCGUCCGGGUGGCGCUCGCCACUCGGGCGGUGGCGCGGGCGCCCAGGGCAGACACUAGGGUAAUCCGGAGGCGCGGCCCUGGAAUUAGACCGACAGCGGGGCUGAGGCUGAGGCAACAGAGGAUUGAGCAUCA: 0.218 ratio
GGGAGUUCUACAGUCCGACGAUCACAGAGCCGAGUAGCAAUAACAGUGAUGAUUGUCCAGGCAAGAGUGAAGACGACGAACACUUAGACCAAAUUCAAAGUAAAGACUCCUGUGAUGAGGGAAAUAAAGUGAACAGUAAUGUCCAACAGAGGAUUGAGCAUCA: 0.552 ratio

Series 4
Target: PABPC1L2, full length, GST fusion (mouse, UniProt A0ABA7IW68)
Technique: RNAcompete
Form: RNA
Medium: in vitro
Concentration: 20 nM
Notes: 7-mer, probes averaged, single round
Reference: mean of 7-mers
Reading: higher = stronger binding
Measurement: 7-mer Z-score
Construct (chain): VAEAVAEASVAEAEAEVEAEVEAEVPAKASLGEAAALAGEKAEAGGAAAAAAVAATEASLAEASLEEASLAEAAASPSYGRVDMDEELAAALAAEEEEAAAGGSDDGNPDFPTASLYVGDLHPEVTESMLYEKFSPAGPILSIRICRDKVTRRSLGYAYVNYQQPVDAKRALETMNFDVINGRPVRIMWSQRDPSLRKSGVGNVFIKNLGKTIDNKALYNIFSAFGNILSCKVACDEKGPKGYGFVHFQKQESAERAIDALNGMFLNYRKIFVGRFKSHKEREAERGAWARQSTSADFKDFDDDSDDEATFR
GCCCCUG: -0.338
UAAUGGC: -0.229
AAUGAGC: -0.0826
UCAAGCU: -0.277
UUCCAAG: -0.173
GAAGUCG: -0.26
GGAACGA: 0.227
UGUCAGC: -0.238
GUCCCAU: -0.394
UAGGGUC: 0.158
CGUUUUG: -0.393
CACAACG: -0.18
CUGUUUG: -0.474
AUAACUG: -0.17
AAUCGCC: -0.304
GACCAAA: 1.24
AAAGCUU: 0.785
AUACCUA: -0.0482
UGUACCA: -0.275
ACGUAUU: -0.18

Series 5
Target: BATF2, bZIP domain (human)
Technique: DHFR protein complementation
Medium: yeast
Notes: single substitutions, most at no-binding floor
Reference: wild-type JUN-FOS pair
Reading: higher = stronger binding
Measurement: binding fitness
Parent: JUN, bZIP domain (human); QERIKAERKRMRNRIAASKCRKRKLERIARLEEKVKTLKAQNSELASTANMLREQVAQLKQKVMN; partner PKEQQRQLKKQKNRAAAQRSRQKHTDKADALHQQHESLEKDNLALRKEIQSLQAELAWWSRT
E54N: -0.535 natural log
T37V: -0.216 natural log
R30G: -0.208 natural log
S47R: -0.121 natural log
E33L: -0.443 natural log
E44Q: -0.306 natural log
A49G: -1.29 natural log
L45I: -0.969 natural log
A49F: -1.24 natural log
L45D: -1.32 natural log
T48R: -0.168 natural log
K39S: -0.427 natural log
L31D: -1.08 natural log
K39F: -0.991 natural log
E44G: -0.767 natural log
M51R: -0.181 natural log
L59T: -0.59 natural log

Mixed results
PhoQ, residues 284 288 289 292 302 303 SSTLSG — fold induction (PhoP, residues 12 14 15 18 19 LWHSL (Escherichia coli, UniProt P23836); Sort-seq, refers to: YFP reporter; E. coli; PhoQ-PhoP variant library, together with: 10 µM Mg2+; reference: high Mg2+ state, higher = stronger signaling): 10.8 and 4.31

Excerpt of the above (series 5):
K39F: -0.991 natural log
E44Q: -0.306 natural log
T48R: -0.168 natural log
L45I: -0.969 natural log
A49G: -1.29 natural log
S47R: -0.121 natural log
M51R: -0.181 natural log
K39S: -0.427 natural log
A49F: -1.24 natural log
